Experimental data pooled from the literature.
Each numbered part is a random draw from the data of one study; scales do not carry over between parts. Changes are numbered by the printed parent chain.
UniProt Q8N5S9, sequence (whole entry, looked up): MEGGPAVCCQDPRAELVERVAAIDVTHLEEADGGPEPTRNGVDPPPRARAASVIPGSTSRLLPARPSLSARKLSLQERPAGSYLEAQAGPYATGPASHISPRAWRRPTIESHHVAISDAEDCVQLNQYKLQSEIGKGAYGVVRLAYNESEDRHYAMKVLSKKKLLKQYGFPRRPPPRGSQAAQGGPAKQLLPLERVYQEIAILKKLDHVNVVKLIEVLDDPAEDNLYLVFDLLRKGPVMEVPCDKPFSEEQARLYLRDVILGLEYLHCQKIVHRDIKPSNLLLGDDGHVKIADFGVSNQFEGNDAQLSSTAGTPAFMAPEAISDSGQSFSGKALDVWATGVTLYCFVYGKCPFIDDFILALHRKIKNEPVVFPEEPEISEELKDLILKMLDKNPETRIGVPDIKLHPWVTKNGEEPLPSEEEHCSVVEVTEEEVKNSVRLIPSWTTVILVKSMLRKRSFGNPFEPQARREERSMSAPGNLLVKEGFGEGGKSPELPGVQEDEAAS
UniProt P00519, sequence (whole entry, unmodified, looked up): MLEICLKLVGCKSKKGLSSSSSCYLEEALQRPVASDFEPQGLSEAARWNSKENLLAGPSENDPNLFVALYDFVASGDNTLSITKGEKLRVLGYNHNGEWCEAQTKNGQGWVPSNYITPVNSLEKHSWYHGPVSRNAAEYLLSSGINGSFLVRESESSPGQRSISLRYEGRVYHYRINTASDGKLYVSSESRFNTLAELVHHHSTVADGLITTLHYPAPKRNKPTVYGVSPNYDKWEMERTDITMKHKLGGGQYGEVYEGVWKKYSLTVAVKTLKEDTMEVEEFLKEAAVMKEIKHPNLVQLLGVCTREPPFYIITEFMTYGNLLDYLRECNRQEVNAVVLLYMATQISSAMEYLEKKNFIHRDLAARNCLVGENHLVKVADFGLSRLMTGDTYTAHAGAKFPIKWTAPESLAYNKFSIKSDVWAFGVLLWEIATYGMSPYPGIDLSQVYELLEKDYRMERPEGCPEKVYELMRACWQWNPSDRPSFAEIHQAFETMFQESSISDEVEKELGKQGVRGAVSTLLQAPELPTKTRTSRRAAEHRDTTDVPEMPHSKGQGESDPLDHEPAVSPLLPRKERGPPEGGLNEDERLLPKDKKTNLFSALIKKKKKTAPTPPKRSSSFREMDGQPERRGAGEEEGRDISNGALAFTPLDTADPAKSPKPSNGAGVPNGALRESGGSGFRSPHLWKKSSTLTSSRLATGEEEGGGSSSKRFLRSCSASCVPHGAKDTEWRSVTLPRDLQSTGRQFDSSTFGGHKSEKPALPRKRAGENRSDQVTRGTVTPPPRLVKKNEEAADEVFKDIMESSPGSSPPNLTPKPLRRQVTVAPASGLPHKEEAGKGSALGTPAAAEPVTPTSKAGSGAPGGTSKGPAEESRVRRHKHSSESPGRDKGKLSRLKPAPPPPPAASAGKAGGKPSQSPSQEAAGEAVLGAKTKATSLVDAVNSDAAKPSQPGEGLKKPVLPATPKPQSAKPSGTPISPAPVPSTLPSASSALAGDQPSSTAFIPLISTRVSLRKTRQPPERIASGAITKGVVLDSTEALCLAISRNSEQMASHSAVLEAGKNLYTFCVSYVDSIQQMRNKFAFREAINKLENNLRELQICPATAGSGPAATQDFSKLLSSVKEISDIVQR

Series 1
Target: CCNA1, cyclin fold, Cln2 fusion (human)
Method: yeast growth competition, sequencing
Matrix: yeast
Notes: weak parent motif
Baseline: not given
Direction: higher = stronger binding
Starting sequence: E2F1 docking peptide (human); PPVKRRLDLETDH; partner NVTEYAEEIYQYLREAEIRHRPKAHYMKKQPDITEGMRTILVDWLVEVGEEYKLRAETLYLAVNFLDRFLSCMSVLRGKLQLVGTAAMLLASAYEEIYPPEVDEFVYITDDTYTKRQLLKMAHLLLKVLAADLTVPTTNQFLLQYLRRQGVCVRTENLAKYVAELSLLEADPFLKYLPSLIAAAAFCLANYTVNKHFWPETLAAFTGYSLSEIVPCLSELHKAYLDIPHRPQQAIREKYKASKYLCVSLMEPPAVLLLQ
Substitution | normalised enrichment score
PPVKRRLNLETDH [D8N] | 0.762
PPVKLRLDLETDH [R5L] | 0.472
PIVKRRLDLETDH [P2I] | 0.147
PPVKNRLDLETDH [R5N] | 0.366
SPVKRRLDLETDH [P1S] | 0.125
PPVKWRLDLETDH [R5W] | 0.211
EPVKRRLDLETDH [P1E] | 0.296
PPVKQRLDLETDH [R5Q] | 0.404

Series 2
Target: RNA binding protein fox-1 homolog 2, RRM domain, GST-SBP tag (RBFOX2, Homo sapiens, UniProt O43251-10, residues 100-194)
Method: RNA Bind-n-Seq
Form: RNA
Matrix: in vitro
Concentration: 365 nM
Notes: natural RNA segment, single round, ends assumed
Baseline: no-protein control
Direction: higher = stronger binding
All sequences stand within: GGGAGUUCUACAGUCCGACGAUC … UGGAAUUCUCGGGUGCCAA
Construct (chain): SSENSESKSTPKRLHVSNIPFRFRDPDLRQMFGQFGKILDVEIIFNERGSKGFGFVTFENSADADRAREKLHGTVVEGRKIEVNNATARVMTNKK
Sequence | RBNS enrichment (R)
AAAACUUCCAGGAUUUUGCAAAGUUGUAUAUAUUUAAUGCUGUGCAACUGCUAAACUAUGCAGUUUUUCUUGAAGGAACUAAAAGCAACUAGCUCCCUAAUGGUCUAUAA | 0.556
UUAACUCCAAGUGCCUUUUUGACAGUGACAACAGACAGUCCCUCGCUUUUUGUUGUUGUUGGUUUUCUUAACCCCUUUAAUGGAACUGCCUGGAUUUUAUACAGUUAUUA | 0.434
UUGGAUGUGUUUUCUCACCAAGAUGAGCAAAGAAAGGUUUGCACAGAGGAGUGUGAAUGUGUGUUUGUUGCUGGCUGAAUGGCAAUAGAUGUCUAAGGUGGAUUCAGUGU | 1.21
AUCUGAAUCAGGAUAGAACACCCAUUAGUCAUUUUCCCCCCACAAAGCAGCAUUCUGCCUGAAGCAGGUAGAAGGCUUUGCUGCUCAUGGAAGCUGGUAGGGAACUUAAA | 0.34
GAAUGAGGUAGGGAGCCUCUCUCCCCCAGUGGCCAUGUUUACAAAAGUGUGUUUUGUCUAUAAAGUGCAAGUGUUUUAAUGUUUAUGUAAAUUAUGCAGGUGAUAACAUG | 1.08
GCAAUAUGCACUACUCCCGACAUAAGUUCUCCAUGGAGACUCUGCAUUGUAAUGCCCACCAACAUCCCAUCAAAGACAUAUAAUGUGCUGUAGUCCACAUUUUAACACUC | 1.07
AGAUCCCCUCCUGUAAGUGGCCAGGCAUUCUCUCCCUGCCCUCUCUGGCCUCUGGGGUCAUACUCACUUCUUUAGCCAGCCCCAUCCCCUCCACCCCACACCUGAGUUCU | 0.803
GGUUGAAGGCAGAGUUUAGUAAUUAAGUUAGAAUUAAGAGUUUUGCGAGGUUAAAAAAAUGUGCCUCGUGGAUCUCCCUGUUUUAGUAACAUGGAGAGAAAAAGUCUACA | 0.551

Single results of other studies
Substance | target or system | assay | test system | setting | scale | measurement | value
STXBP5 (Homo sapiens, UniProt Q5T5C0) | AP2M1 (Homo sapiens, UniProt Q96CW1) | cross-linking MS | – | hits only | – | interaction screen | cross-linked
CNCc1ccccc1-c1csc([C@@H](C)Nc2nc(C)nc3cc(OC)c(OC)cc23)c1 | Tyrosine-protein kinase ABL1, non-phosphorylated (ABL1, Homo sapiens, UniProt P00519, F317L) | cell-free assay, competition with immobilised ligand | – | 1 µM | – | remaining binding | 86%
Cc1ccc(S(=O)(=O)/C=C/C#N)cc1 | Calcium/calmodulin-dependent protein kinase kinase 1 (CAMKK1, Homo sapiens, UniProt Q8N5S9) | enzyme activity, inhibitor | – | 0.5 µM | baseline: control | remaining activity | 114%
ALDH1B1 (Homo sapiens, UniProt P30837) | PGD (Homo sapiens, UniProt P52209) | cross-linking MS | cell fractions | together with: DMTMM | – | cross-linked residues | K344 to E46

Repeated from above (series 2):
Sequence | RBNS enrichment (R)
UUGGAUGUGUUUUCUCACCAAGAUGAGCAAAGAAAGGUUUGCACAGAGGAGUGUGAAUGUGUGUUUGUUGCUGGCUGAAUGGCAAUAGAUGUCUAAGGUGGAUUCAGUGU | 1.21
AUCUGAAUCAGGAUAGAACACCCAUUAGUCAUUUUCCCCCCACAAAGCAGCAUUCUGCCUGAAGCAGGUAGAAGGCUUUGCUGCUCAUGGAAGCUGGUAGGGAACUUAAA | 0.34
